{"data": "Results gathered from unrelated publications", "note": "Numbered parts are unrelated; each lists some results of a single study.", "chain of UniProt Q13237 (whole entry, looked up)": "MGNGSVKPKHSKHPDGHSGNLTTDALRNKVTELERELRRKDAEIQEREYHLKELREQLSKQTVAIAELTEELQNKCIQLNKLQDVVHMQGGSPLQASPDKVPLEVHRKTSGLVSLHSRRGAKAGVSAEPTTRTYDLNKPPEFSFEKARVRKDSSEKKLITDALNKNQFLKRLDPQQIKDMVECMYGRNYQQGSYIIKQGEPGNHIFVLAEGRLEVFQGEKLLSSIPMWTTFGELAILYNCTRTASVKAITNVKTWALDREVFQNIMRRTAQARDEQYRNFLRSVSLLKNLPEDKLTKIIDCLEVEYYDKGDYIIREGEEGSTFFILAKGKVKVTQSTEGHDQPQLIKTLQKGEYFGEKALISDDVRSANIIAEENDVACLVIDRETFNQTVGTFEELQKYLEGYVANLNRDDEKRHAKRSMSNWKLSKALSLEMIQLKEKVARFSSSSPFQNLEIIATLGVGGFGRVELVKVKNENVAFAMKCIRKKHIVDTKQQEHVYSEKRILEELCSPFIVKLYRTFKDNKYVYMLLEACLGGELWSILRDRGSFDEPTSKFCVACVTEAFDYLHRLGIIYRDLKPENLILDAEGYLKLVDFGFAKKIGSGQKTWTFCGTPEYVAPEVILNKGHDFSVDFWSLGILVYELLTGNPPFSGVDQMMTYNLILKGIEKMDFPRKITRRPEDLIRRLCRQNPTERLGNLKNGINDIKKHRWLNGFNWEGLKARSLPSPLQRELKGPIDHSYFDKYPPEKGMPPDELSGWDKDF", "chain of UniProt P32298 (whole entry, looked up)": "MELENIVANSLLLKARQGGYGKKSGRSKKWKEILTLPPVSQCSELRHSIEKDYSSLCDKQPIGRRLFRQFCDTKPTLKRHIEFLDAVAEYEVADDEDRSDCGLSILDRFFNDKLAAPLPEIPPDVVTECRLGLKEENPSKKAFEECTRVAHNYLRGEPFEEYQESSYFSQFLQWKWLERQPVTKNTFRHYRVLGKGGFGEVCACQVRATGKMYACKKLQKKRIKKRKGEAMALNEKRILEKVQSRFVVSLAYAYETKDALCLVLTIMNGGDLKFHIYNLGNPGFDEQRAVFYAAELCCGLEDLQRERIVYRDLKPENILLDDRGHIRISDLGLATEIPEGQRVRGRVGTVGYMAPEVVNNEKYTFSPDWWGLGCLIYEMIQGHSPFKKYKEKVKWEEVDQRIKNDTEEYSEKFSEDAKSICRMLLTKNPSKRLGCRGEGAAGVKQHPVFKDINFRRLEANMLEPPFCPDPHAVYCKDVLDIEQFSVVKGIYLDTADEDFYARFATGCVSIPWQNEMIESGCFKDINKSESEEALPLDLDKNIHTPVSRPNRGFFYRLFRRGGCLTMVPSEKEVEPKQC", "chain of UniProt P57059 (whole entry, looked up)": "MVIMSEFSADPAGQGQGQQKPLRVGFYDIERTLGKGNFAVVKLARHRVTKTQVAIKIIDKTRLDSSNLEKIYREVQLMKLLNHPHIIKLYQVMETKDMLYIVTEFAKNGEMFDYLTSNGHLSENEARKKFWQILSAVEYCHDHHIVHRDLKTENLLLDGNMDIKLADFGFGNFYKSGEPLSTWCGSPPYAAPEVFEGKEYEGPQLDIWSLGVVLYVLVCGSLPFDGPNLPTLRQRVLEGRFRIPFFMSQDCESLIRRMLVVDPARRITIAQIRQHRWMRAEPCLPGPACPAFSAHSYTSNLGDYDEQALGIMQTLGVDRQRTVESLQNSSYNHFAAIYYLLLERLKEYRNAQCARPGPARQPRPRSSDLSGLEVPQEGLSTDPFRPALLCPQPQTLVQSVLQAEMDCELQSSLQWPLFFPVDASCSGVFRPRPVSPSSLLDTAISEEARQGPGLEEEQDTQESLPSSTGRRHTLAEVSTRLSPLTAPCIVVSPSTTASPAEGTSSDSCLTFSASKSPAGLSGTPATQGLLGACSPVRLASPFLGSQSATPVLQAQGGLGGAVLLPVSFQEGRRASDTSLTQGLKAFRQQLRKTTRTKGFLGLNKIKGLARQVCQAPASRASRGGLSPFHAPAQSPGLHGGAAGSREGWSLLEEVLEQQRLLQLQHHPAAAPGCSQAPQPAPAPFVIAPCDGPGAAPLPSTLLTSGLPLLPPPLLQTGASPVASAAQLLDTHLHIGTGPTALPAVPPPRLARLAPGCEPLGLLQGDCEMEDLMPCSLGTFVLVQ", "chain of UniProt Q9Y616 (whole entry, looked up)": "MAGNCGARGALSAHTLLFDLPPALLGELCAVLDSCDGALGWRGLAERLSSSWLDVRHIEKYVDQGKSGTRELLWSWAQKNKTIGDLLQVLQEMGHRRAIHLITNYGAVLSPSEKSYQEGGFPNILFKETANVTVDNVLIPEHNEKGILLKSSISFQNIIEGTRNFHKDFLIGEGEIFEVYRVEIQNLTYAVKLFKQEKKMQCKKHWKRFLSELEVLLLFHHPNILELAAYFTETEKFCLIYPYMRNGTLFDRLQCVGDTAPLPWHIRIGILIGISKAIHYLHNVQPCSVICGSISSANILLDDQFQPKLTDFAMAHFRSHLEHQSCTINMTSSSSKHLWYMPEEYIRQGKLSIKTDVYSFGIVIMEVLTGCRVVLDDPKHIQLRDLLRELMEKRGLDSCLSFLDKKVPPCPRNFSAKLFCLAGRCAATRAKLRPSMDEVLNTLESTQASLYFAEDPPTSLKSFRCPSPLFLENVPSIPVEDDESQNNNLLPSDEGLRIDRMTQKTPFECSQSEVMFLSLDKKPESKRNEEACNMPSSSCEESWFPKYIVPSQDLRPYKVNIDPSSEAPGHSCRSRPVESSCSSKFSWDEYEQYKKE", "chain of UniProt Q15303 (whole entry, looked up)": "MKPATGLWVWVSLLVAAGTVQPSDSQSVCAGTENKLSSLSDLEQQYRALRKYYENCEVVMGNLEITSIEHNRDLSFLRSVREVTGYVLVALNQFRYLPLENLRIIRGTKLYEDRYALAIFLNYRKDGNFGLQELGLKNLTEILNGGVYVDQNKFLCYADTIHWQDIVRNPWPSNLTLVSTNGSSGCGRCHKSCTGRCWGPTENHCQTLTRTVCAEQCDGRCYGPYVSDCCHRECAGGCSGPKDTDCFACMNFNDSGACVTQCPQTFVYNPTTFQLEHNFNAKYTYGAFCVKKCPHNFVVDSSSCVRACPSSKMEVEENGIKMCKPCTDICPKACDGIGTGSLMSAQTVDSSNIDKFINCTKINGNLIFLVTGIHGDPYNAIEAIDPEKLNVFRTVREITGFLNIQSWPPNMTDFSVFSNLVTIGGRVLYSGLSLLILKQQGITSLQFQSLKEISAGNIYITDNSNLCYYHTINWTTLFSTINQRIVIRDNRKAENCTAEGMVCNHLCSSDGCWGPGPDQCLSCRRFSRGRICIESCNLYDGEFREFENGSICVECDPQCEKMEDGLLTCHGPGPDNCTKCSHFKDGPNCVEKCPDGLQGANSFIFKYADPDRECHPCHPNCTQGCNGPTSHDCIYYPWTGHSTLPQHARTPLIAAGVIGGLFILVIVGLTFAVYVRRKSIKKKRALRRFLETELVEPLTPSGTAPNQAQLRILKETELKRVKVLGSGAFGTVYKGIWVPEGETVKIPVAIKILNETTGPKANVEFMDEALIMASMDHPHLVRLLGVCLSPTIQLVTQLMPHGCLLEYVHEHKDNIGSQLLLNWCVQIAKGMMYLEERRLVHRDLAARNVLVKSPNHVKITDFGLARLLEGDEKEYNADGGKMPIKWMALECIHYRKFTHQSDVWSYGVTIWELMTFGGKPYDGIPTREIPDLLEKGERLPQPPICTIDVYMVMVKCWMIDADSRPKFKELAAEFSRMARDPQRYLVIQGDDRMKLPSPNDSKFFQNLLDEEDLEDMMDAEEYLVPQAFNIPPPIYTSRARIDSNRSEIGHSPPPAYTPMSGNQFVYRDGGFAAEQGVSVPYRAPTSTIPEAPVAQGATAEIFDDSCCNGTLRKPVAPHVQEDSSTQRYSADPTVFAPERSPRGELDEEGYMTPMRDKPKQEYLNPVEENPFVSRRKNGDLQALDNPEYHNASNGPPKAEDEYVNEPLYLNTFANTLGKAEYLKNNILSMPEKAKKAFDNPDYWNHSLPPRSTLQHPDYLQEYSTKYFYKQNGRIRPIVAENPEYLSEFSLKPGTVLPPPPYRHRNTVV", "chain of UniProt P42681 (whole entry, looked up)": "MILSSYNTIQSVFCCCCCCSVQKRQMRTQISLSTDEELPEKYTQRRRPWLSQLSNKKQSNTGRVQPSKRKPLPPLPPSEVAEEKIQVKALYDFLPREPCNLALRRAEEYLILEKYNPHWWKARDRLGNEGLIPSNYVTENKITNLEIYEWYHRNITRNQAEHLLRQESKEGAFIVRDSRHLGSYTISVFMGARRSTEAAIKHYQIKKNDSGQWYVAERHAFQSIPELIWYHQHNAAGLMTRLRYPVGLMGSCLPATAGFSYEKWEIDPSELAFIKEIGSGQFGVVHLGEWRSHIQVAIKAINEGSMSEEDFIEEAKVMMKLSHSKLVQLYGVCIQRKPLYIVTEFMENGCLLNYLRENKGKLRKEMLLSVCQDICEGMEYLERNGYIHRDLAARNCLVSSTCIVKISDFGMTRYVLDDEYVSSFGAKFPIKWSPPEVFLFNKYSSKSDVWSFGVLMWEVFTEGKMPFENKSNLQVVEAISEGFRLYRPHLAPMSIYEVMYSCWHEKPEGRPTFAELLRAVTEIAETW"}
{"data": "Study 1", "species": "mouse", "matrix": "microsomes or S9", "tested at": "2 µM", "time": "0.5 h"}
{"Compound": "O=C(CCCc1ccc2c(c1)-c1ccccc1C2)NC1CCCNC1=O (centres unmarked)", "remaining compound [%]": 7.26}
{"Compound": "Nc1ccc(C(=O)NC2CCc3ccccc32)cc1 (centres unmarked)", "remaining compound [%]": 58.1}
{"Compound": "CC(=O)N(c1ccccc1)C(c1ccccc1)c1nc2ccccc2nc1O (centres unmarked)", "remaining compound [%]": 2.63}
{"Compound": "CCOc1cc(=O)n2c(c1C(=O)NC1CCc3ccccc31)CCCCC2 (centres unmarked)", "remaining compound [%]": 4.49}
{"Compound": "CC(C)Cc1ccc(C(C)C(=O)NCCNC(=O)C2CCCNC2=O)cc1 (centres unmarked)", "remaining compound [%]": 27.2}
{"Compound": "CC(C)(C)N1CC(C(=O)NCCOc2ccc(-c3ccccc3)cc2)CC1=O (centres unmarked)", "remaining compound [%]": 3.16}
{"Compound": "Nc1ccc(F)cc1-c1cc(Cl)cc(Cl)c1", "remaining compound [%]": 2.17}
{"Compound": "COc1cccc(C2CC(c3cccs3)=NN2S(C)(=O)=O)c1OC (centres unmarked)", "remaining compound [%]": 0.149}
{"Compound": "O=C(Cn1cncn1)c1ccc(-c2ccccc2)cc1", "remaining compound [%]": 2.92}
{"Compound": "CCOC(=O)N1CCN(C(=O)c2ccc(NCCc3ccc(Cl)cc3)c(S(=O)(=O)Nc3ccc(OCC)cc3)c2)CC1", "remaining compound [%]": 3.81}
{"data": "Study 2", "Compound": "O=C(Nc1cccc(Nc2nccc(Nc3cccc(C(F)(F)F)c3)n2)c1)C1CC1", "read-out": "enzyme activity", "mode": "inhibitor", "tested at": "0.5 µM", "reference": "control"}
{"target": "Rho-associated protein kinase 1 (ROCK1, Homo sapiens, UniProt Q13464)", "remaining activity [%]": 101}
{"target": "Serine/threonine-protein kinase MRCK beta (CDC42BPB, Homo sapiens, UniProt Q9Y5S2)", "remaining activity [%]": 96.6}
{"target": "Serine/threonine-protein kinase PLK3 (PLK3, Homo sapiens, UniProt Q9H4B4)", "remaining activity [%]": 90.2}
{"target": "Dual specificity protein kinase CLK4 (CLK4, Homo sapiens, UniProt Q9HAZ1)", "remaining activity [%]": 84.3}
{"target": "Mitogen-activated protein kinase 14 (MAPK14, Homo sapiens, UniProt Q16539)", "remaining activity [%]": 91.5}
{"target": "Calcium/calmodulin-dependent protein kinase type IV (CAMK4, Homo sapiens, UniProt Q16566)", "remaining activity [%]": 97.9}
{"target": "Misshapen-like kinase 1 (MINK1, Homo sapiens, UniProt Q8N4C8)", "remaining activity [%]": 108}
{"target": "Ribosomal protein S6 kinase alpha-4 (RPS6KA4, Homo sapiens, UniProt O75676)", "remaining activity [%]": 104}
{"target": "Tyrosine-protein kinase TXK (TXK, Homo sapiens, UniProt P42681)", "remaining activity [%]": 90.2}
{"target": "Cyclin-dependent kinase 1, with cyclin A (CDK1, Homo sapiens, UniProt P06493)", "remaining activity [%]": 95.9}
{"target": "G protein-coupled receptor kinase 4 (GRK4, Homo sapiens, UniProt P32298)", "remaining activity [%]": 96.9}
{"target": "cGMP-dependent protein kinase 2 (PRKG2, Homo sapiens, UniProt Q13237)", "remaining activity [%]": 96.2}
{"target": "Dual specificity protein kinase CLK3 (CLK3, Homo sapiens, UniProt P49761)", "remaining activity [%]": 104}
{"target": "Cyclin-dependent kinase 9, with cyclin K (CDK9, Homo sapiens, UniProt P50750)", "remaining activity [%]": 107}
{"data": "Study 3", "Structure (SMILES)": "O=C(Nc1ccc(Oc2ccc(F)cc2)cc1)N1CCc2ncccc2[C@H]1c1ccc(F)cc1", "tested at": "1 µM"}
{"target": "Receptor tyrosine-protein kinase erbB-4 (ERBB4, Homo sapiens, UniProt Q15303)", "test": "cell-free assay, competition with immobilised ligand", "remaining binding [%]": 82}
{"target": "Inhibitor of nuclear factor kappa-B kinase subunit epsilon (IKBKE, Homo sapiens, UniProt Q14164)", "test": "cell-free assay, competition with immobilised ligand", "remaining binding [%]": 89}
{"target": "Serine/threonine-protein kinase Sgk2 (SGK2, Homo sapiens, UniProt Q9HBY8)", "test": "cell-free assay, competition with immobilised ligand", "remaining binding [%]": 100}
{"target": "Interleukin-1 receptor-associated kinase 3 (IRAK3, Homo sapiens, UniProt Q9Y616)", "test": "cell-free assay, competition with immobilised ligand", "remaining binding [%]": 100}
{"target": "Serine/threonine-protein kinase SIK1 (SIK1, Homo sapiens, UniProt P57059)", "test": "competition binding", "remaining binding [%]": 99}
{"target": "Myosin-IIIa (MYO3A, Homo sapiens, UniProt Q8NEV4)", "test": "binding, competition with immobilised ligand", "remaining binding [%]": 100}
{"target": "Aurora kinase B (AURKB, Homo sapiens, UniProt Q96GD4)", "test": "cell-free assay, competition with immobilised ligand", "remaining binding [%]": 89}
{"data": "Study 4", "target": "Calcium/calmodulin-dependent protein kinase type II subunit alpha (CAMK2A, Homo sapiens, UniProt Q9UQM7)", "read-out": "enzyme activity", "mode": "inhibitor", "tested at": "10 µM", "chain of UniProt Q9UQM7 (whole entry, looked up)": "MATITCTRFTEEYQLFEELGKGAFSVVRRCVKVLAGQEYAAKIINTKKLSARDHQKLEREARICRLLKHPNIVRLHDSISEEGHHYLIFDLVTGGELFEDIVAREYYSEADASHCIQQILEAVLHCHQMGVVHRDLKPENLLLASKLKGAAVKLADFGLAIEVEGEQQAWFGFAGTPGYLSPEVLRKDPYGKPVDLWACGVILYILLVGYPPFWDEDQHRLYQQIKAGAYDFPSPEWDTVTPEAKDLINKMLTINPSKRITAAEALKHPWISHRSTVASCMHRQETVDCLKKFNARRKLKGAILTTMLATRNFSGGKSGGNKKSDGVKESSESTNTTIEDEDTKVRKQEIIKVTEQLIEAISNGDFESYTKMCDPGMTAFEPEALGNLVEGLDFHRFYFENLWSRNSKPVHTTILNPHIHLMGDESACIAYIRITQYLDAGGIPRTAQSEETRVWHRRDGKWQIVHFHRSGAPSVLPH"}
{"SMILES": "C[C@]1(COc2ccc(N3CCC(Oc4ccc(OC(F)(F)F)cc4)CC3)cc2)Cn2cc([N+](=O)[O-])nc2O1", "inhibition [%]": -5}
{"SMILES": "CCCCCCCCCC[C@H](C(=O)O)[C@]1(C(=O)O)CCC(=O)O1", "inhibition [%]": 13}
{"SMILES": "COc1ccc(CC(=O)O)cc1O", "inhibition [%]": -21}
{"SMILES": "OCc1ccccc1", "inhibition [%]": 14}
{"SMILES": "O=C(/C=C/c1ccc(O[C@@H]2O[C@H](CO)[C@@H](O)[C@H](O)[C@H]2O)cc1)c1ccc(O)cc1O", "inhibition [%]": -34}
{"SMILES": "CC(C)=CCC/C(C)=C/COc1c2ccoc2cc2oc(=O)ccc12", "inhibition [%]": -20}
{"SMILES": "C=C1[C@@H]2CC[C@@H]3[C@](C2)(C(=O)[C@@H](O)[C@@H]2C(C)(C)[C@H]4CC(=O)[C@@]32CO4)[C@@H]1OC(C)=O", "inhibition [%]": -12}
{"note": "A few entries again (study 1):"}
{"Compound": "CCOc1cc(=O)n2c(c1C(=O)NC1CCc3ccccc31)CCCCC2 (centres unmarked)", "remaining compound [%]": 4.49}
{"Compound": "CC(=O)N(c1ccccc1)C(c1ccccc1)c1nc2ccccc2nc1O (centres unmarked)", "remaining compound [%]": 2.63}
{"Compound": "Nc1ccc(F)cc1-c1cc(Cl)cc(Cl)c1", "remaining compound [%]": 2.17}
{"Compound": "COc1cccc(C2CC(c3cccs3)=NN2S(C)(=O)=O)c1OC (centres unmarked)", "remaining compound [%]": 0.149}
{"Compound": "O=C(Cn1cncn1)c1ccc(-c2ccccc2)cc1", "remaining compound [%]": 2.92}
